Results of several laboratories.
Compare with care: the assays were run in different laboratories. “And” joins repeats or separate records; there may be more than shown. ± gives the spread as reported.

Structure (SMILES)	test	system	conditions	how to read	endpoint	value
C=CC(=O)N1CCC(c2ccc(C(N)=O)c(-c3ccc(Oc4ccccc4)cc3)n2)CC1	CTCAE 4.03	patients with relapsed/refractory MCL	oral, 100 mg twice daily		incidence of fatal serious TRAEs	0%
O=S(=O)(Nc1ccccc1)c1ccc(NC(=S)Nc2ccccc2)cc1		mouse, male, blood	oral, 80 mg/kg daily, 14 days		mean corpuscular volume	47.5 fL
N.N.[Cl][Pt][Cl]		mouse, serum	dose not given		uric acid	7.8 mg/dL and 4.6 mg/dL and 4 mg/dL
C=CC[N+]1([C@H]2C[C@H]3[C@@H]4CC[C@H]5C[C@H](O)[C@@H](N6CCOCC6)C[C@]5(C)[C@H]4CC[C@]3(C)[C@H]2OC(C)=O)CCCC1		Sprague Dawley rat, plasma	intravenous, 0.2 mg/kg, together with: vehicle IV		Cmax	287 ng/mL
CO[C@H]1C[C@@H]2CC[C@@H](C)[C@@](O)(O2)C(=O)C(=O)N2CCCC[C@H]2C(=O)O[C@H]([C@H](C)C[C@@H]2CC[C@@H](OC(=O)NCCOCCOCCOCCOCCOCCOCCOCCOCCC(=O)N3CCc4cc(Cn5nc(-c6ccc7oc(N)nc7c6)c6c(N)ncnc65)ccc4C3)[C@H](OC)C2)C[C@@H](O)[C@H](C)/C=C(\C)[C@@H](O)[C@@H](OC)C(=O)[C@H](C)C[C@H](C)/C=C/C=C/C=C/1C		patients with advanced solid tumours	intravenous, dose not given, grade ≥3		incidence of Diarrhea TRAE	0%
COc1ccc(OC)c(C=CC(=O)C=Cc2cc(OC)ccc2OC)c1	acridine orange staining	zebrafish (Danio rerio) larvae	up to 25 µM, larvae at 96 hpf		apoptosis	no effect
COc1ncnn2ccc(-c3cnc4nc(C)n(Cc5nnc([C@@H](C)F)o5)c4c3)c12		human	oral, dose not given, grade 5		patients with any adverse reaction	0%
COc1ccc(CCC2CCCC(CCc3ccc(OC)cc3)N2C[C@@H](O)CO)cc1.Cl (stereo in doubt)		rabbit Purkinje fibres	0.03 µM, cycle length 0.5 s	relative to: baseline	Vmax change	2.9 ± 2.1%
CC(C)[C@@H]1CC[C@@H](C)C[C@@H]1O	acute oral toxicity OECD	Swiss albino mice, serum	oral, 300 mg/kg		cholesterol	67.5 ± 3.95 mg/dL
C[C@@H]1NC(=O)[C@H](CCCCNC(=O)CO/N=C/C(=O)NCCCC[C@@H]2NC(=O)[C@@H](Cc3ccccc3)NC(=O)[C@H](CC(=O)O)NC(=O)CNC(=O)[C@H](CCCNC(=N)N)NC2=O)NC(=O)CNC(=O)[C@@H]2CCCN2C(=O)[C@H](CCCCNC(=O)CO/N=C/C(=O)NCCCC[C@@H]2NC(=O)[C@@H](Cc3ccccc3)NC(=O)[C@H](CC(=O)O)NC(=O)CNC(=O)[C@H](CCCNC(=N)N)NC2=O)NC(=O)[C@H](CCCCNC(=O)CN2CCCNCCNCCCNCC2)NC(=O)[C@H](CCCCNC(=O)CO/N=C/C(=O)NCCCC[C@@H]2NC(=O)[C@@H](Cc3ccccc3)NC(=O)[C@H](CC(=O)O)NC(=O)CNC(=O)[C@H](CCCNC(=N)N)NC2=O)NC(=O)CNC(=O)[C@@H]2CCCN2C(=O)[C@H](CCCCNC(=O)CO/N=C/C(=O)NCCCC[C@@H]2NC(=O)[C@@H](Cc3ccccc3)NC(=O)[C@H](CC(=O)O)NC(=O)CNC(=O)[C@H](CCCNC(=N)N)NC2=O)NC1=O [copper-64 labelled]		normal mice, intestine	intravenous, 0.74 MBq, 24 h post-injection		tissue uptake	1.77 ± 0.21 %ID/g
O=C(Nc1ccccc1)C1CCN(C(=O)Oc2cccnc2)CC1	Bond-Lader VAS	healthy women	oral, 100 mg	relative to: pre-dose baseline, direction not given	change in alertness score	15
CC[C@H](C)CCCCC(=O)N[C@@H](CCN)C(=O)N[C@H](C(=O)N[C@@H](CCN)C(=O)N[C@H]1CCNC(=O)[C@H]([C@@H](C)O)NC(=O)[C@H](CCN)NC(=O)[C@H](CCN)NC(=O)[C@H](CC(C)C)NC(=O)[C@@H](Cc2ccccc2)NC(=O)[C@H](CCN)NC1=O)[C@@H](C)O		human, critically ill, AKI, plasma	intravenous, dose not given, mean		dose-normalised fAUC(0-24) steady state	0.67 mg·h/L per mg
CN[C@@H](C)C(=O)N[C@H]1CN(S(=O)(=O)c2cccc(S(=O)(=O)N3CC[C@H]4CC[C@@H](C(=O)NC(c5ccccc5)c5ccccc5)N4C(=O)[C@@H](NC(=O)[C@H](C)NC)C3)c2)CC[C@H]2CC[C@@H](C(=O)NC(c3ccccc3)c3ccccc3)N2C1=O		patients with advanced solid tumours	45 mg, phase I monotherapy		treatment-related facial nerve disorder incidence	60%
Clc1ccc(-c2cc(Cl)c(Cl)cc2Cl)cc1Cl		whole cow milk	50 nM nominal		dose fraction in skim milk	4.03%
N#CCNC(=O)c1ccc(-c2ccnc(Nc3ccc(N4CCOCC4)cc3)n2)cc1		healthy volunteers	oral, 200 mg, together with: midazolam 5 mg		feeling hot incidence	0%
N.N.O=C([O-])C1(C(=O)[O-])CCC1.[Pt+2]	measured: non-protein-bound platinum	human, plasma ultrafiltrate	target AUC 3, from 0, median, Bayesian estimate		AUC to infinity	38300 ng·h/mL
C[C@]1(O)C[C@@](N)(c2ccc(-c3nc4n(c3-c3ccccc3)COc3ccncc3-4)cc2)C1		human, advanced or metastatic solid tumours	20 mg once daily, phase I dose escalation		patients with TEAE	100%
COc1cc2c(Oc3ccc4[nH]c(C)cc4c3F)ccnc2cc1OCC1(N)CC1		paediatric recurrent refractory sarcoma	12 mg		abdominal pain incidence	36.4%

Structure (SMILES)	test	system	conditions	how to read	endpoint	value
CCc1ccc(CC/C=C/c2ccc3c(c2)C(=O)CC3)cc1		Sprague-Dawley rat, male, blood	oral, 450 mg/kg/day, 14 days		APTT	20.4 s
CCN(CC)CCCC[C@H](NC(=O)[C@H](CC(C)C)NC(=O)[C@H](C)NC(=O)[C@H](Cc1ccccc1)NC(=O)c1ccc(C(C)(C)C)cc1)C(=O)N[C@@H](CO)C(=O)OC		male Swiss Albino mice, plasma	intraperitoneal, 10 mg/kg, 2 h		plasma concentration	580 ng/mL
[O-][S+]1CCc2nc(N3CCC(c4ncc(Cl)cn4)CC3)nc(NC3(CO)CCC3)c21 (stereo not drawn)	measured: Dizziness	healthy male humans	single dose, all groups		adverse event incidence	8.3%
CN1CC[C@@H](c2c(O)cc(O)c3c(=O)cc(-c4ccc(C(F)(F)F)cc4Cl)oc23)[C@@H]1CO	measured: Thrombocytopenia	relapsed or refractory haematological malignancies	oral, dose not given, grade 3 to 4, all arms		patients with adverse event	7.5%
CC[C@H](C)[C@H](NC(=O)[C@H](Cc1ccccc1)NC(=O)[C@H](CCC(=O)O)NC(=O)[C@H](CCCNC(=N)N)NC(=O)[C@H](C)NC(=O)[C@H](C)NC(=O)[C@H](CCC(N)=O)NC(=O)[C@H](CCC(=O)O)NC(=O)[C@H](CCC(=O)O)NC(=O)[C@H](CC(C)C)NC(=O)[C@H](Cc1ccc(O)cc1)NC(=O)[C@H](CO)NC(=O)[C@H](CO)NC(=O)[C@@H](NC(=O)[C@H](CC(=O)O)NC(=O)[C@H](CO)NC(=O)[C@@H](NC(=O)[C@H](Cc1ccccc1)NC(=O)[C@@H](NC(=O)CNC(=O)[C@H](CCC(=O)O)NC(=O)[C@H](C)NC(=O)CCc1cnc[nH]1)[C@@H](C)O)[C@@H](C)O)C(C)C)C(=O)N[C@@H](C)C(=O)N[C@@H](Cc1c[nH]c2ccccc12)C(=O)N[C@@H](CC(C)C)C(=O)N[C@H](C(=O)N[C@@H](CCCNC(=N)N)C(=O)NCC(=O)N[C@@H](CCCNC(=N)N)C(=O)N[C@@H](CCCCNC(=O)COCCOCCNC(=O)COCCOCCNC(=O)CC[C@H](NC(=O)CCCCCCCCCCCCCCCCC(=O)O)C(=O)O)C(=O)NCC(=O)NCC(=O)N[C@@H](CO)C(=O)N[C@@H](CCCCNC(=O)[C@H](CCCCNc1c(NCCCCCN(O)C(=O)CCC(=O)NCCCCCN(O)C(=O)CCC(=O)NCCCCCN(O)C(C)=O)c(=O)c1=O)Nc1c(NCCCCCN(O)C(=O)CCC(=O)NCCCCCN(O)C(=O)CCC(=O)NCCCCCN(O)C(C)=O)c(=O)c1=O)C(=O)O)C(C)C [zirconium-89 labelled]	ex vivo gamma counting	male Sprague-Dawley rats, brain	intravenous, 1 nmol, 24 h		tissue uptake	0.019 %ID/g
CC(C)C[C@H](NC(=O)[C@H](CCCCN)NC(=O)OCC1c2ccccc2-c2ccccc21)C(=O)N[C@H](C(=O)N[C@@H](Cc1ccccc1)C(=O)N[C@@H](Cc1ccccc1)C(=O)N[C@@H](CCCCN)C(=O)NCC(=O)N[C@@H](Cc1ccccc1)C(=O)N[C@@H](C)C(=O)N[C@@H](Cc1c[nH]c2ccccc12)C(=O)N[C@@H](CC(N)=O)C(=O)N[C@H](C(=O)N[C@H]1CSSC[C@@H](C(=O)N[C@@H](Cc2c[nH]cn2)C(=O)N[C@@H](CCCNC(=N)N)C(=O)N[C@@H](CCCNC(=N)N)C(=O)N[C@@H](C)C(=O)N[C@@H](CC(N)=O)C(N)=O)NC(=O)[C@H](C(C)C)NC(=O)[C@H](CCCNC(=N)N)NC(=O)[C@H](C(C)C)NC(=O)CNC(=O)[C@H](CC(N)=O)NC(=O)[C@H](CCCNC(=N)N)NC(=O)[C@H](Cc2ccc(O)cc2)NC(=O)[C@H](C(C)C)NC1=O)C(C)C)C(C)C		ICR mice, blood	intraperitoneal, 5 mg/kg, day 5		monocytes	2.93 ± 0.35%
CC(C)Nc1ccnc(Nc2cccc(-c3cccnc3)c2)n1	measured: globulin	mouse, blood	intraperitoneal, 5 mg/kg		blood chemistry	1.8 g/dL
O=C(O)CCCOc1ccc(F)cc1-c1cc(-c2ccccc2C(F)(F)F)n(-c2ccccc2)n1	measured: AST	Crl:CD(SD) rats, female, serum	iv, 25 µg/kg, 14 days		serum enzyme activity	70.8 ± 5.5 U/L
C=CC(=O)N[C@H]1C=C(C)c2c(-c3cnc4ccccc4c3)c3c(N)ncnc3n2C1	two-compartment PK model	mouse, plasma	oral		intercompartmental clearance	0.455 L/h
Cc1cc(C)c(CNC(=O)c2cc(Cl)c3c(c2C)O[C@@](C)([C@H]2CC[C@H](N(C)C)CC2)O3)c(=O)[nH]1		human, relapsed/refractory NHL	concentration not given, treatment-related TEAEs, grade 5		Pneumonia incidence	0%
O=C1Nc2cc3[nH]nc(-c4ccncc4)c3cc2CN1Cc1ccccc1	CTCAE v4.03	advanced solid tumour patients	intravenous, 9.6 mg/kg, schedules 1/2		patients with cough	0%
C[C@]1(CO)Cc2ncn(-c3ccc(C#N)c(Cl)c3)c2C(=O)O1		human, Chinese, plasma	80 mg single dose, geometric mean		Cmax	4.41 µM
CC[C@H](C)[C@H](NC(=O)[C@H](CCCCN)NC(=O)[C@H](CCC(=O)O)NC(=O)[C@H](CCCCN)NC(=O)[C@H](CO)NC(=O)[C@H](CCCCN)NC(=O)[C@H](CCCNC(=N)N)NC(=O)[C@H](Cc1ccccc1)NC(=O)[C@H](Cc1ccccc1)NC(=O)[C@H](CC(=O)O)NC(=O)CNC(=O)[C@H](CC(C)C)NC(=O)[C@@H](N)CC(C)C)C(=O)NCC(=O)N[C@@H](CCCCN)C(=O)N[C@@H](CCC(=O)O)C(=O)N[C@@H](Cc1ccccc1)C(=O)N[C@@H](CCCCN)C(=O)N[C@@H](CCCNC(=N)N)C(=O)N[C@H](C(=O)N[C@H](C(=O)N[C@@H](CCC(N)=O)C(=O)N[C@@H](CCCNC(=N)N)C(=O)N[C@H](C(=O)N[C@@H](CCCCN)C(=O)N[C@@H](CC(=O)O)C(=O)N[C@@H](Cc1ccccc1)C(=O)N[C@@H](CC(C)C)C(=O)N[C@@H](CCCNC(=N)N)C(=O)N[C@@H](CC(N)=O)C(=O)N[C@@H](CC(C)C)C(=O)N[C@H](C(=O)N1CCC[C@H]1C(=O)N[C@@H](CCCNC(=N)N)C(=O)N[C@H](C(=O)N[C@@H](CCC(=O)O)C(=O)N[C@@H](CO)C(=O)O)[C@@H](C)O)C(C)C)[C@@H](C)CC)C(C)C)[C@@H](C)CC	LC-MS	50% pooled human serum in Tris-HCl buffer	40 µM, 2 h, pH 7.5, 37 °C	relative to: 0 h value	remaining intact peptide	2.91%
Oc1c(Cl)cc2c(c1Cl)Oc1cc(Cl)c(Cl)cc1O2		whole cow milk	100 nM nominal		dose fraction in skim milk	43.3%
COc1ccc([C@@H](O)c2cc(-c3ncnc4cc(N5CCOCC5)ccc34)c(F)cc2Cl)nn1		patients, advanced solid tumours	oral, 200 mg twice daily, treatment-emergent, together with: avelumab		hypotension incidence	1%
NC(=O)[C@H]1CCN(c2ncnc(N)c2F)C[C@@H]1N1CCC[C@@H](Nc2cc(Cl)cc(C(F)(F)F)c2)C1=O		B-cell malignancy patients	oral, 41 mg twice daily, dose		grade ≥3 anaemia	40%
[2H]C([2H])([18F])[C@]([2H])(N)C(=O)O	PET	athymic nude mice, U-87 MG	dose not given, 30 min post-injection	relative to: tumour over muscle	tumour-to-muscle ratio	1.12 ± 0.15
C=CC(=O)N1CC[C@H](n2nc(C#Cc3cc(OC)cc(OC)c3)c3c(N)ncnc32)C1		human patients	oral, dose not given, QD regimen, adverse drug reaction, together with: ferric citrate hydrate		hyperphosphatemia incidence, grade ≥3	0%

For quick reference, copied from above:
Structure (SMILES)	test	system	conditions	how to read	endpoint	value
Cc1cc(C)c(CNC(=O)c2cc(Cl)c3c(c2C)O[C@@](C)([C@H]2CC[C@H](N(C)C)CC2)O3)c(=O)[nH]1		human, relapsed/refractory NHL	concentration not given, treatment-related TEAEs, grade 5		Pneumonia incidence	0%
O=C1Nc2cc3[nH]nc(-c4ccncc4)c3cc2CN1Cc1ccccc1	CTCAE v4.03	advanced solid tumour patients	intravenous, 9.6 mg/kg, schedules 1/2		patients with cough	0%
C[C@]1(CO)Cc2ncn(-c3ccc(C#N)c(Cl)c3)c2C(=O)O1		human, Chinese, plasma	80 mg single dose, geometric mean		Cmax	4.41 µM
